Results collected from several papers.
Numbered parts are unrelated; each lists some results of a single study. Substitutions count along the parent as printed.
Sequence of UniProt P11229 (whole entry, looked up): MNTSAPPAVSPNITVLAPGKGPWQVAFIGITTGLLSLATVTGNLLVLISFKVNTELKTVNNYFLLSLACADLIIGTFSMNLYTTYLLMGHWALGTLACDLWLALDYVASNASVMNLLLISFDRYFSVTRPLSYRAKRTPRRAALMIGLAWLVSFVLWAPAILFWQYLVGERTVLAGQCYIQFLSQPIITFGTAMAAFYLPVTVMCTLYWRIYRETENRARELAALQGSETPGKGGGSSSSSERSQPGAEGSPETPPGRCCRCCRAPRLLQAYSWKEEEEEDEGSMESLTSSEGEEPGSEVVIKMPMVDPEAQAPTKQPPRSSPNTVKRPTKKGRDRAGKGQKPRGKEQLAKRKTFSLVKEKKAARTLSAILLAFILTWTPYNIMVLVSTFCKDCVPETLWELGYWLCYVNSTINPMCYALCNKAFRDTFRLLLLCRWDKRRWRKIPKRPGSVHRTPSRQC

Set 1
Target: UDP-N-acetylglucosamine--peptide N-acetylglucosaminyltransferase 110 kDa subunit (OGT, Homo sapiens, UniProt O15294)
Sequence of UniProt O15294 (whole entry, looked up): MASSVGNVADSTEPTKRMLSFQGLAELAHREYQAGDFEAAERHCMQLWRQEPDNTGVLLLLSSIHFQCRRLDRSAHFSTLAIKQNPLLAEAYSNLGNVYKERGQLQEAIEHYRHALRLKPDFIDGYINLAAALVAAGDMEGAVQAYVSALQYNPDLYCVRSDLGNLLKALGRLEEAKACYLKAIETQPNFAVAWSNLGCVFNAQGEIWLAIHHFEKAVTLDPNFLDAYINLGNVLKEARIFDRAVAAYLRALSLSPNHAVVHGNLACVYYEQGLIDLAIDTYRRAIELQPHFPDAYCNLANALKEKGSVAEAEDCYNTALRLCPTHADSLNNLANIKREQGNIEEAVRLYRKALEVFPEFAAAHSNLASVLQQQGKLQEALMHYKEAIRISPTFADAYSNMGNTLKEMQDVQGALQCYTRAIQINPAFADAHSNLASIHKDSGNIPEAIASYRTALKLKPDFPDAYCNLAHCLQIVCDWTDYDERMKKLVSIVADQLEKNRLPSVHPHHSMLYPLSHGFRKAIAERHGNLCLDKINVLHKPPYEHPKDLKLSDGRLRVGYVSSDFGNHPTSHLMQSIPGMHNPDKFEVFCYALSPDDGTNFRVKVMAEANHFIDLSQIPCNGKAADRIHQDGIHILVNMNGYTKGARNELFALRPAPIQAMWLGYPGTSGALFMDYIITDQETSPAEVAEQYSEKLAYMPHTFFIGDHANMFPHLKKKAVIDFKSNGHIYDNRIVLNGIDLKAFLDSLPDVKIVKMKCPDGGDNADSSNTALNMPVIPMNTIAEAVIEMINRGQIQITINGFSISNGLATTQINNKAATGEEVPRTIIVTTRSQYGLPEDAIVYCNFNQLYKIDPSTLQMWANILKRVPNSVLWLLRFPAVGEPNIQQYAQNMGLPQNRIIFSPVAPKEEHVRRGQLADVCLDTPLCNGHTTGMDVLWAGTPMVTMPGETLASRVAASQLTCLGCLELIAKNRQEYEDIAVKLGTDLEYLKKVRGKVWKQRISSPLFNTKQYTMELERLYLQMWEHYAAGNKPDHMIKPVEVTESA
Effect on: phage display binding
Technique: phage display panning NGS
Form: peptide
Notes: panning round 3
Relative to: OGT-panned over input library
For `EQHFPPAYLITYKSR`, the fold enrichment was 3.86.
`DTRWVPSYQIKYSYM` gave a fold enrichment of 1.97.
For `QPYFLPKYVITVDNS`, the fold enrichment was 2.97.
For `QQYFLPMYQIQFRNM`, the fold enrichment was 3.92.
`QPTTSFPPKYLITYT` gave a fold enrichment of 2.91.
With `FPSFLPAYPIEYSNT` the fold enrichment was 6.02.
With `VMELQFLPHYQIEAF` the fold enrichment was 4.06.
The fold enrichment of `QSDFLPKYQLDLFSY` is reported as 3.55.

Set 2
Target: CCNA2, cyclin fold, Cln2 fusion (human)
Technique: yeast growth competition, sequencing
Matrix: yeast
Notes: strong parent motif
Relative to: not given
Reading: higher = stronger binding
Starting sequence: viral docking peptide; YKVKRRLVFGADD
`K2S`: “normalised enrichment score” 5.8.
`G10L`: “normalised enrichment score” 6.09.
`K2H` — result for “normalised enrichment score”: 6.56.
`L7E`: “normalised enrichment score” 0.182.
`D12A`: “normalised enrichment score” 6.53.
`L7H`: “normalised enrichment score” 0.217.
`G10S`: “normalised enrichment score” 5.86.
`F9C` — result for “normalised enrichment score”: 1.14.

Mixed results
Concentration: 10 µM
For `CCCCN(CCCC)C(=O)CN1C[C@@H](c2cc(OC)c3c(c2)OCO3)[C@H](C(=O)O)[C@H]1CC(C)(C)CCC`, the inhibition was 12.4% (Muscarinic acetylcholine receptor M1 (CHRM1, Homo sapiens, UniProt P11229); binding, radioligand binding).
The nuclei count of `CC(C)(C)NCC(O)c1ccccc1Cl` (stereo not drawn) is reported as 1.03 z-score (mouse MPNST tumor cells; high-content nuclear imaging, item: cell number; 12 h, mean of 2 replicates; relative to: plate mean, higher = more cells).

Excerpt of the above (set 2):
`L7E`: “normalised enrichment score” 0.182.
`D12A`: “normalised enrichment score” 6.53.
`L7H`: “normalised enrichment score” 0.217.
